{"data": "Results pooled from the literature", "note": "Each line is one published result; not all experiments were run side by side."}
{"Compound": "C[C@@H](Nc1cc(F)cc(F)c1)c1cc(C(=O)N(C)C)cc2c(=O)cc(N3CCOCC3)oc12", "test system": "human", "conditions": "60 mg twice daily, vistusertib alone, geometric LSM", "Cmax": "364 ng/mL"}
{"Compound": "COc1ncc(-c2nc3c(n2C(C)C)[C@H](c2ccc(Cl)cc2)N(c2cc(Cl)cn(C)c2=O)C3=O)c(OC)n1", "assay": "LC-MS/MS", "test system": "human, plasma", "conditions": "oral, 400 mg, cycle 1 day 1, high-dose arm", "Cmax": "3750 ng/mL"}
{"Compound": "C=CC(=O)N(C)CCOc1c(N)ncnc1-c1cc(F)cc(NC(=O)c2ccc(C3CC3)cc2F)c1C", "test system": "human, whole blood", "conditions": "oral, 50 mg once daily, day 1", "Cmax": "76.5 ng/mL"}
{"Compound": "C=CCn1c(=O)c2cnc(Nc3ccc(N4CCN(C)CC4)cc3)nc2n1-c1cccc(C(C)(C)O)n1", "test system": "human", "conditions": "oral, 175 mg twice daily, cycle 1 day 17, together with: durvalumab 1500 mg IV", "how to read": "geometric mean", "Cmax": "960 nM"}
{"Compound": "CCN1CCN(Cc2ccc(Nc3ncc(F)c(-c4cc(F)c5nc6n(c5c4)[C@H](C)CCC6)n3)nc2)CC1", "test system": "human, Phase Ib patients, plasma", "conditions": "300 mg, multiple doses, mean, together with: fulvestrant", "Cmax": "362 ng/mL"}
{"Compound": "CCn1cc(C(=O)N2CCOCC2)c(=O)c2cc(NC3Cc4ccccc4C3)cnc21", "test system": "human, fed", "conditions": "oral tablet, 300 mg single dose, arithmetic mean", "Cmax": "1530 ng/mL"}
{"Compound": "C[C@@H]1CCO[C@H]2Cn3cc(C(=O)NCc4ccc(F)cc4F)c(=O)c(O)c3C(=O)N12", "test system": "human, body weight 30 to <40 kg, plasma", "conditions": "oral, 25 mg, film-coated tablet, steady state", "Cmax": "1930 ng/mL"}
{"Compound": "CCOc1c([C@H](C)n2nc(C)c3c(N)ncnc32)cc(Cl)c(F)c1[C@@H]1CNC(=O)C1", "test system": "human, DLBCL, plasma", "conditions": "oral, 30 mg, day 15", "Cmax": "3920 nM"}
{"Compound": "CNC(=O)c1ccc(-c2cnc3ncc(Cc4ccc5ncccc5c4)n3n2)cc1F", "test system": "human severe hepatic impairment NCI", "conditions": "oral, 200 mg single dose, geometric mean", "Cmax": "950 ng/mL"}
{"Compound": "Cl.[2H]C([2H])([2H])CC(=O)c1cnc(NC(=O)C2CC2)cc1Nc1cccc(-c2ncn(C([2H])([2H])[2H])n2)c1OC", "assay": "geometric mean", "test system": "human", "conditions": "oral, 20 mg twice daily, day 1, fasted, tablet, multiple dose", "Cmax": "132 ng/mL"}
{"note": "A few entries again:"}
{"Compound": "CCOc1c([C@H](C)n2nc(C)c3c(N)ncnc32)cc(Cl)c(F)c1[C@@H]1CNC(=O)C1", "test system": "human, DLBCL, plasma", "conditions": "oral, 30 mg, day 15", "Cmax": "3920 nM"}
